Measured values of several laboratories.
Each line is one published result; not all experiments were run side by side.
T1: PSMG3/PSMG4 heterodimer (Homo sapiens); chain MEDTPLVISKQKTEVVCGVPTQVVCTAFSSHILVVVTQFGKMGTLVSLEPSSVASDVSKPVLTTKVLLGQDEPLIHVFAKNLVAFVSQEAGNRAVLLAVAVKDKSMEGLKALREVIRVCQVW; chain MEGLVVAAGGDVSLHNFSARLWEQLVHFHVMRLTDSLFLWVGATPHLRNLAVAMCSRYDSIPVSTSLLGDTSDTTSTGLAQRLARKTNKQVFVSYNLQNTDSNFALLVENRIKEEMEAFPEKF
B1: RAB12 GppNHp-bound 36-211 Q101L (Homo sapiens, UniProt Q6IQ22-2); chain PRPADFKLQVIIIGSRGVGKTSLMERFTDDTFCEACKSTVGVDFKIKTVELRGKKIRLQIWDTAGLERFNSITSAYYRSAKGIILVYDITKKETFDDLPKWMKMIDKYASEDAELLLVGNKLDCETDREITRQQGEKFAQQITGMRFCEASAKDNFNVDEIFLKLVDDILKKMPLD
B2: VPS71 (Saccharomyces cerevisiae, UniProt Q03433); sequence looked up; chain MKALVEEIDKKTYNPDIYFTSLDPQARRYTSKKINKQGTISTSRPVKRINYSLADLEARLYTSRSEGDGNSISRQDDRNSKNSHSFEERYTQQEILQSDRRFMELNTENFSDLPNVPTLLSDLTGVPRDRIESTTKPISQTSDGLSALMGGSSFVKEHSKYGHGWVLKPETLREIQLSYKSTKLPKPKRKNTNRIVALKKVLSSKRNLHSFLDSALLNLMDKNVIYHNVYNKRYFKVLPLITTCSICGGYDSISSCVNCGNKICSVSCFKLHNETRCRNR
B3: PFD3 (Arabidopsis thaliana, UniProt P57741); sequence looked up; chain MSSSSPSGSGSDLTERRGIPAAKFIQDVETYLSQSGLDPNSALAFHQERLQQYKVVEMKLLAQQRDLQAKIPDIEKCLEVVATLEAKKGTGEALLADFEVSEGIYSRACIEDTDSVCLWLGANVMLEYSCEEASALLKNNLENAKASLEVLVADLQFLRDQVTVTQVTIARVYNWDVHQRRVKQVTPTAIAVADS
B4: CCDC32 1-100 (Mus musculus, UniProt Q8BS39); chain MKMFESLDSSATKSGRDLWAEICSCLPSPAQEDVSDNAFSDSFMDSHPAGESHTAAADSAVQPAGKPWAPLHDSEVYLASLEKKLRRIKGLNEEVTSKDM
B5: PIN1 42-163 (Homo sapiens, UniProt Q13526); chain SSGGKNGQGEPARVRCSHLLVKHSQSRRPSSWRQEKITRTKEEALELINGYIQKIKSGEEDFESLASQFSDCSSAKARGDLGAFSRGQMQKPFEDASFALRTGEMSGPVFTDSGIHIILRTE
B6: EFR3B 716-787 (Homo sapiens, UniProt Q9Y2G0); chain VPAEEITYETLKKAIVDSVAVEEQERERRRQVVEKFQKAPFEEIAAHCGARASLLQSKLNQIFEITIRPPPS
B7: ARHGEF12 32-190 (Homo sapiens, UniProt Q9NZN5); sequence looked up; chain KKQKVERIASHDFDPTDSSSKKTKSSSEESRSEIYGLVQRCVIIQKDDNGFGLTVSGDNPVFVQSVKEDGAAMRAGVQTGDRIIKVNGTLVTHSNHLEVVKLIKSGSYVALTVQGRPPGSPQIPLADSEVEPSVIGHMSPIMTSPHSPGASGNMERITS
B8: TFC7 1-435 (Saccharomyces cerevisiae, UniProt Q12415); chain MVVNTIYIARHGYRSNWLPEGPYPDPLTGIDSDVPLAEHGVQQAKELAHYLLSLDNQPEAAFASPFYRCLETVQPIAKLLEIPVYLERGIGEWYRPDRKPVIPVPAGYEILSKFFPGVISQEWDSTLTPNEKGETEQEMYMRFKKFWPLFIERVEKEYPNVECILLVTHAASKIALGMSLLGYDNPRMSLNENGDKIRSGSCSLDKYEILKKSYDTIDETDDQTSFTYIPFSDRKWVLTMNGNTEFLSSGEEMNWNFDCVAEAGSDADIKKRQMTKKTSSPIPEADDQTEVETVYISVDIPSGNYKERTEIAKSAILQYSGLETDAPLFRIGNRLYEGSWERLVGTELAFPNAAHVHKKTAGLLSPTEENETTNAGQSKGSSTANDPNIQIQEEDVGLPDSTNTSRDHTGDKEEVQSEKIYRIKERIVLSNVRPM
B9: ATG9 1-100 (Saccharomyces cerevisiae, UniProt Q12142); sequence looked up; chain MERDEYQLPNSHGKNTFLSRIFGLQSDEVNPSLNSQEMSNFPLPDIERGSSLLHSTNDSREDVDENDLRVPESDQGTSTEEEDEVDEEQVQAYAPQISDG
B10: PSMD10 1-226 I219D (Homo sapiens, UniProt O75832); chain MEGCVSNLMVCNLAYSGKLEELKESILADKSLATRTDQDSRTALHWACSAGHTEIVEFLLQLGVPVNDKDDAGWSPLHIAASAGRDEIVKALLGKGAQVNAVNQNGCTPLHYAASKNRHEIAVMLLEGGANPDAKDHYEATAMHRAAAKGNLKMIHILLYYKASTNIQDTEGNTPLHLACDEERVEEAKLLVSQGASIYIENKEEKTPLQVAKGGLGLDLKRMVEG
B11: PRP40 351-415 (Saccharomyces cerevisiae, UniProt P33203); chain NYTRDRIARDNFKSLLREVPIKIKANTRWSDIYPHIKSDPRFLHMLGRNGSSCLDLFLDFVDEQR
B12: PGD1 1-397 (Saccharomyces cerevisiae, UniProt P40356); chain MDSIIPAGVKLDDLQVILAKNENETRDKVCKQINEARDEILPLRLQFNEFIQIMANIDQEGSKQADRMAKYLHIRDKILQLNDRFQTLSSHLEALQPLFSTVPEYLKTADNRDRSFQLLEPLSTYNKNGNAVCSTATVVSTNHSAAASTPTTTATPHANPITHAHSLSNPNSTATMQHNPLAGKRGPKSGSTMGTPTVHNSTAAAPIAAPKKPRKPRQTKKAKAQAQAQAQAQAQVYAQQSTVQTPITASMAAALPNPTPSMINSVSPTNVMGTPLTNMMSPMGNAYSMGAQNQGGQVSMSQFNGSGNGSNPNTNTNSNNTPLQSQLNLNNLTPANILNMSMNNDFQQQQQQQQQQQQPQPQYNMNMGMNNMNNGGKELDSLDLNNLELGGLNMDFL
B13: POMP (Homo sapiens, UniProt Q9Y244); chain MNARGLGSELKDSIPVTELSASGPFESHDLLRKGFSCVKNELLPSHPLELSEKNFQLNQDKMNFSTLRNIQGLFAPLKLQMEFKAVQQVQRLPFLSSSNLSLDVLRGNDETIGFEDILNDPSQSEVMGEPHLMVEYKLGLL
B14: CRYBA1 (Homo sapiens, UniProt P05813-1); sequence looked up; chain METQAEQQELETLPTTKMAQTNPTPGSLGPWKITIYDQENFQGKRMEFTSSCPNVSERSFDNVRSLKVESGAWIGYEHTSFCGQQFILERGEYPRWDAWSGSNAYHIERLMSFRPICSANHKESKMTIFEKENFIGRQWEISDDYPSLQAMGWFNNEVGSMKIQSGAWVCYQYPGYRGYQYILECDHHGGDYKHWREWGSHAQTSQIQSIRRIQQ
B15: INF2 941-1249 (Homo sapiens, UniProt Q27J81-1); FITC label; sequence looked up; chain KQQLAEEEARRPRGEDGKPVRKGPGKQEEVCVIDALLADIRKGFQLRKTARGRGDTDGGSKAASMDPPRATEPVATSNPAGDPVGSTRCPASEPGLDATTASESRGWDLVDAVTPGPQPTLEQLEEGGPRPLERRSSWYVDASDVLTTEDPQCPQPLEGAWPVTLGDAQALKPLKFSSNQPPAAGSSRQDAKDPTSLLGVLQAEADSTSEGLEDAVHSRGARPPAAGPGGDEDEDEEDTAPESALDTSLDKSFSEDAVTDSSGSGTLPRARGRASKGTGKRRKKRPSRSQEEVPPDSDDNKTKKLCVIQ
B16: Ap2s1 1-142 H96C (Mus musculus, UniProt P62743); chain MIRFILIQNRAGKTRLAKWYMQFDDDEKQKLIEEVHAVVTVRDAKHTNFVEFRNFKIIYRRYAGLYFCICVDVNDNNLAYLEAIHNFVEVLNEYFCNVCELDLVFNFYKVYTVVDEMFLAGEIRETSQTKVLKQLLMLQSLE
B17: CLTA (Bos taurus, UniProt P04973); sequence looked up; chain MAELDPFGVPAGGPALGNGVAGEEDPAAAFLAQQESEIAGIENDEAFAILDGGAPGSQPHGEPPGIPDAVDGVTNGDYYQESNGPTDSYAAISQVDRLQSEPESIRKWREEQTERLEALDANSRKQEAEWKEKAIKELDEWYARQDEQLQKTKANNRVADEAFYKQPFADVIGYVTNINHPCYSLEQAAEEAFVNDIEESSPGTEWERVARLCDFNPKSSKQAKDVSRMRSVLISLKQAPLVH
B18: PARD6B 254-372 (Homo sapiens, UniProt Q9BYG5); chain NVVRNSRTSGSSGQSTDNSLLGYPQQIEPSFEPEDEDSEEDDIIIEDNGVPQQIPKAVPNTESLESLTQIELSFESGQNGFIPSNEVSLAAIASSSNTEFETHAPDQKLLEEDGTIITL
Chain of UniProt P49951 (whole entry, looked up): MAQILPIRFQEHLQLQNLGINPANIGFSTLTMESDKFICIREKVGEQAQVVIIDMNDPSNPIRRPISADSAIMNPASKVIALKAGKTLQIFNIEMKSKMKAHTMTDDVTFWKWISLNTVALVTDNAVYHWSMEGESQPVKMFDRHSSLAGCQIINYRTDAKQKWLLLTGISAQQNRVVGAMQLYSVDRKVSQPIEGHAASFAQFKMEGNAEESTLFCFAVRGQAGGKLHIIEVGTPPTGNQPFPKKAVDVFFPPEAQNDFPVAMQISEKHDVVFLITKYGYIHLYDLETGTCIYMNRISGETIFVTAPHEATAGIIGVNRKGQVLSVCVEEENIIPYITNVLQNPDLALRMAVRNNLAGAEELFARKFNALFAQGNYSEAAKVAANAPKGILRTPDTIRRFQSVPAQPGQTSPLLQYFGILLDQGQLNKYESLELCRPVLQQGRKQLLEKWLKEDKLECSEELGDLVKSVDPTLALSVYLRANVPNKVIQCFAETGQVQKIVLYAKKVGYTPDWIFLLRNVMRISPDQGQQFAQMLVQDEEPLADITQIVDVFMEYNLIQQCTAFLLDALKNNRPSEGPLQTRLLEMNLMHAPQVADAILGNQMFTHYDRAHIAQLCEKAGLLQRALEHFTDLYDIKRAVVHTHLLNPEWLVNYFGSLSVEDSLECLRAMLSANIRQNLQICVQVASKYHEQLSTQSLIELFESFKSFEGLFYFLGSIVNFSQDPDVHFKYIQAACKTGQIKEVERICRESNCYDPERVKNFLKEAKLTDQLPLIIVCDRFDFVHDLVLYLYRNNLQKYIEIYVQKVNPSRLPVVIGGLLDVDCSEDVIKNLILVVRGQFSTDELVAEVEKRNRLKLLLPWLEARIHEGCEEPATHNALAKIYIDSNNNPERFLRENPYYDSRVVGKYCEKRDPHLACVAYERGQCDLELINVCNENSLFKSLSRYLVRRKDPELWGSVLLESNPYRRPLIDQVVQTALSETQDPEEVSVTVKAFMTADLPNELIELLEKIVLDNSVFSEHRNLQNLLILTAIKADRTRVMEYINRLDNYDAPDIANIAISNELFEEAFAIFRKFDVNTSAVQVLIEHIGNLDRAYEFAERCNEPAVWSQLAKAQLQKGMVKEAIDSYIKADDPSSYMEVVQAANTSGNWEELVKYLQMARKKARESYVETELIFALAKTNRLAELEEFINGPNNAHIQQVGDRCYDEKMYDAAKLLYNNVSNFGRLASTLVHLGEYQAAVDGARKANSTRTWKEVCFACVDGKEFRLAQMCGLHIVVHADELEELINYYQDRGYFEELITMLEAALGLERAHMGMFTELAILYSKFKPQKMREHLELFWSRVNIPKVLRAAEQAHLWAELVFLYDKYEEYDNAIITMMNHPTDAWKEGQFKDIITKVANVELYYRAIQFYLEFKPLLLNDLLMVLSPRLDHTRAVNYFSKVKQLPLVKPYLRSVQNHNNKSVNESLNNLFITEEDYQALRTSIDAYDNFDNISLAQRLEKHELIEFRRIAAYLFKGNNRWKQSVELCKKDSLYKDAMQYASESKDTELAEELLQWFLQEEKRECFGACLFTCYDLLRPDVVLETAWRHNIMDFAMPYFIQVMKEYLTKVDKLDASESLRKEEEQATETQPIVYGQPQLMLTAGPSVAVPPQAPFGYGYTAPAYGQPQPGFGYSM
Chain of UniProt Q12263 (whole entry, looked up): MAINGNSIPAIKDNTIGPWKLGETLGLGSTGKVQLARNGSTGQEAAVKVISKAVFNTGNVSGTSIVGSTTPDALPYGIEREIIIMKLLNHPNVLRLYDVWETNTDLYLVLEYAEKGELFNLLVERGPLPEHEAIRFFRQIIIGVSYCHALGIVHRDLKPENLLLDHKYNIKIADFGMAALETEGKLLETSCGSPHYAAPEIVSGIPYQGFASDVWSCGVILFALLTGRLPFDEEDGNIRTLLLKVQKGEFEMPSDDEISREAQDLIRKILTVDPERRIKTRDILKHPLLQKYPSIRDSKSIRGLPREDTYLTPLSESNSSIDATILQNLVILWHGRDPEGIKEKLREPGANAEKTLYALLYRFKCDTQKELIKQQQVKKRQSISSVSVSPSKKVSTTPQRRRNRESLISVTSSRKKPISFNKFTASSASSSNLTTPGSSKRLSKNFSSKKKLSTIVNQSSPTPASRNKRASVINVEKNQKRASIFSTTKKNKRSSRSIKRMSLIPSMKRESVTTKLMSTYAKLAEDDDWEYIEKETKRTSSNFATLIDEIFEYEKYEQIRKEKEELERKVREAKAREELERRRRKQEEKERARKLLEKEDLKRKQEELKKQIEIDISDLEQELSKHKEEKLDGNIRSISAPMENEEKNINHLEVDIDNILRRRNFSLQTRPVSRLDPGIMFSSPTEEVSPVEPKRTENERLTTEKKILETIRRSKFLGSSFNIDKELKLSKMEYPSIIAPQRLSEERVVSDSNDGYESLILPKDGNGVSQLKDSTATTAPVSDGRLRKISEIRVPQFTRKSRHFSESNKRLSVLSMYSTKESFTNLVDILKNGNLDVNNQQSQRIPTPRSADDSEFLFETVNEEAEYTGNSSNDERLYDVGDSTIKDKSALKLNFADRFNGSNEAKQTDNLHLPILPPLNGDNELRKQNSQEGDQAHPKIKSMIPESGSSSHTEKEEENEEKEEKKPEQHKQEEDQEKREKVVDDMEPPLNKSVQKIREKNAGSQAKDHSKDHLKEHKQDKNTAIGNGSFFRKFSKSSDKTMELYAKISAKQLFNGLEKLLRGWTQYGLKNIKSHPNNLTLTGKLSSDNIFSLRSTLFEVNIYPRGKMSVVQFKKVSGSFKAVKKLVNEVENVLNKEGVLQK
Chain of UniProt P23804 (whole entry, looked up): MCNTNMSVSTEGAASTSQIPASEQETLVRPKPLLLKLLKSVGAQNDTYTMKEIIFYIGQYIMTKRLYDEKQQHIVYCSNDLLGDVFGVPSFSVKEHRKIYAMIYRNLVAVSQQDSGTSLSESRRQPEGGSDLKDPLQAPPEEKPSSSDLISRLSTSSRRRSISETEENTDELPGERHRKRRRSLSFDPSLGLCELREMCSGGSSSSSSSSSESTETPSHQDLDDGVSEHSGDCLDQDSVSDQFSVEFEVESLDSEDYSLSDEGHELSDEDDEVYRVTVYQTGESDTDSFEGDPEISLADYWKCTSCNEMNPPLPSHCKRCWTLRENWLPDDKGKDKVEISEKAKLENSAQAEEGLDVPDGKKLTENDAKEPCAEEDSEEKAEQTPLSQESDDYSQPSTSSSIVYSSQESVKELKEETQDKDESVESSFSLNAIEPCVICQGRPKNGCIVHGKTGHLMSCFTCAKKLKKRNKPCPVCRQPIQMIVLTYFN
Chain of UniProt P32801 (whole entry, looked up): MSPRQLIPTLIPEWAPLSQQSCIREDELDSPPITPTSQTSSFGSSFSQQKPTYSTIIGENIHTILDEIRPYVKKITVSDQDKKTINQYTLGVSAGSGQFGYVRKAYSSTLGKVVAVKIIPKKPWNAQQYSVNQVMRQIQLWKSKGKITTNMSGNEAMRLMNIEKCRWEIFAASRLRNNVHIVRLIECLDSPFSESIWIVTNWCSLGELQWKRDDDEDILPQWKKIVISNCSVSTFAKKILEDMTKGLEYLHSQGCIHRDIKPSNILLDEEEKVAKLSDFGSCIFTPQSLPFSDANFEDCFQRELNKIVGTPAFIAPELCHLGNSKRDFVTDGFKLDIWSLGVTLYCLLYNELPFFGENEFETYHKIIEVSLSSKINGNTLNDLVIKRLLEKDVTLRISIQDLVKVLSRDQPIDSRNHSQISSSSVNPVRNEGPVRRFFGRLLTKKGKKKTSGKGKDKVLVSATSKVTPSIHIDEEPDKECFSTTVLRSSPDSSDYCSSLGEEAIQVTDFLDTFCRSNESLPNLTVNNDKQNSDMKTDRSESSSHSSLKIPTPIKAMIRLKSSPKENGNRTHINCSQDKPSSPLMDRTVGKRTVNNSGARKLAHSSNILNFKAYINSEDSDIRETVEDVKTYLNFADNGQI
Chain of UniProt Q13137 (whole entry, looked up): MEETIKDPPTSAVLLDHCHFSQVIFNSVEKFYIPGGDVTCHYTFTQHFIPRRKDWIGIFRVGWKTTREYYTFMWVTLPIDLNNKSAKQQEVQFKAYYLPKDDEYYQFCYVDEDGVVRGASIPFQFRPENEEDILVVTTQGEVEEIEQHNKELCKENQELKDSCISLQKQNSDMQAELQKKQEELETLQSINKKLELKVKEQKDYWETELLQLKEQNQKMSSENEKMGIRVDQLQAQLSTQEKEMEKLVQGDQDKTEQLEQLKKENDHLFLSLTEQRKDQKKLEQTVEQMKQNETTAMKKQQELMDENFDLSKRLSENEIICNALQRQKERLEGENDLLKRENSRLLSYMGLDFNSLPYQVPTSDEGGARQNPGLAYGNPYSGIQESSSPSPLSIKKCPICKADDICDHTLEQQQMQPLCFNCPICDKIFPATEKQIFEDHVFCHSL
Chain of UniProt P53207 (whole entry, looked up): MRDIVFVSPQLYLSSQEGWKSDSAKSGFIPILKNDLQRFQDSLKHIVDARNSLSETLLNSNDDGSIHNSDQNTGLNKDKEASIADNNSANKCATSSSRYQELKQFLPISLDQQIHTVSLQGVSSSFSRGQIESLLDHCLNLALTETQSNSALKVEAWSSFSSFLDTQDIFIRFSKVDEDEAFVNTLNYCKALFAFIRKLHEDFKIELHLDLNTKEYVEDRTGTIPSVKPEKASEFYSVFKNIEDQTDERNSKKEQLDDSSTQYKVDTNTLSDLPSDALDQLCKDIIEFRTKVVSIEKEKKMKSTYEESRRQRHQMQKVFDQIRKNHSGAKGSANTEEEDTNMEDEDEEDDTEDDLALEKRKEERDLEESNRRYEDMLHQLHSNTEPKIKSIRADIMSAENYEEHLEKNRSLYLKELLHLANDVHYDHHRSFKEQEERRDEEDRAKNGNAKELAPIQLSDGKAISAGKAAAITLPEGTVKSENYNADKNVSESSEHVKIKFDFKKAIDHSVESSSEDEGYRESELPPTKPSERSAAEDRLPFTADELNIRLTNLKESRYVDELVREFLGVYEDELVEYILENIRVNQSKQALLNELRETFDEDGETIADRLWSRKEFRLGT

Under binding, `B1` is recorded as “binds” (LRRK2 (Homo sapiens, UniProt Q5S007); cryo-EM; added: GppNHp).
For `B2 (VPS71)`, binding read “binds” (SWC3 (Saccharomyces cerevisiae, UniProt P31376); cryo-EM).
`B3 (PFD3)` — result for binding: “binds” (WRKY70 (Arabidopsis thaliana, UniProt Q9LY00); pull-down).
`B4 (CCDC32 1-100)`: binding “binds” (Ap2m1 122-435 (Mus musculus, UniProt P84091); pull-down).
`B5 (PIN1 42-163)`: binding “binds” (PPARG AF-1 1-136, pT75, pS112 (Homo sapiens, UniProt P37231-1); NMR).
`B6 (EFR3B 716-787)` — result for binding: “binds” (TTC7A/FAM126B FAM126B 1-308; BLI).
`B7 (ARHGEF12 32-190)` — result for binding: “binds” (IGF1R 899-1367 (Homo sapiens, UniProt P08069); pull-down).
Under binding, `KESALRKQDLLLIFDPLLR (TACC3 to 568 550-568 S558D/Y560L/K562I (Homo sapiens, UniProt Q9Y6A5); sequence looked up)` is recorded as “binds” (CLTC 358-574 (Homo sapiens, UniProt Q00610); peptide array; peptide).
For `B8 (TFC7 1-435)`, binding read “binds” (TFC1 1-649 (Saccharomyces cerevisiae, UniProt P32367); cryo-EM).
`ELM1 (Saccharomyces cerevisiae, UniProt P32801)` — result for binding: “binds” (GIN4 (Saccharomyces cerevisiae, UniProt Q12263); pull-down).
Under binding, `B9 (ATG9 1-100)` is recorded as “binds” (ATG23 L323R (Saccharomyces cerevisiae, UniProt Q06671); pull-down; 15 minutes, 4 °C).
`ESVASHFALVTAYEDIKKRLKDSEKENSLLKKRIRFLEEKLIA (AZI2 33-75 (Homo sapiens, UniProt Q9H6S1))` — result for binding: “binds” (CALCOCO2 1-316 (Homo sapiens, UniProt Q13137); AUC (sedimentation velocity)).
`B10 (PSMD10 1-226 I219D)` — result for binding: “binds” (Mdm2 (Mus musculus, UniProt P23804); pull-down).
`B11 (PRP40 351-415)` — result for binding: “binds” (SNU71 382-537 (Saccharomyces cerevisiae, UniProt P53207); pull-down).
`B12 (PGD1 1-397)`: binding “binds” (MED2 1-431 (Saccharomyces cerevisiae, UniProt Q12124); cryo-EM).
For `B13 (POMP)`, binding read “binds” (T1, PSMG3/PSMG4 heterodimer (Homo sapiens); cryo-EM).
`B14 (CRYBA1)`: binding “binds” (CRYBB1 (Homo sapiens, UniProt P53674); native MS).
Under binding, `B15 (INF2 941-1249)` is recorded as “binds” (INF2 fragment 20-24 replaced by GSGSG (Homo sapiens); fluorescence polarisation; apparent).
`B16 (Ap2s1 1-142 H96C)` — result for binding: “binds” (AP2M1 μ2 subunit 1-435 V306C (Mus musculus, UniProt P84091); cross-linking).
`B17 (CLTA)`: binding “binds” (CLTC (Bos taurus, UniProt P49951); ELISA).
For `B18 (PARD6B 254-372)`, binding read “binds” (LLGL2 13-978, dephosphorylated (Homo sapiens, UniProt Q6P1M3); pull-down).

Some of these lines once more:
`B3 (PFD3)` — result for binding: “binds” (WRKY70 (Arabidopsis thaliana, UniProt Q9LY00); pull-down).
`ESVASHFALVTAYEDIKKRLKDSEKENSLLKKRIRFLEEKLIA (AZI2 33-75 (Homo sapiens, UniProt Q9H6S1))` — result for binding: “binds” (CALCOCO2 1-316 (Homo sapiens, UniProt Q13137); AUC (sedimentation velocity)).
`B14 (CRYBA1)`: binding “binds” (CRYBB1 (Homo sapiens, UniProt P53674); native MS).
